Experimental data gathered from unrelated publications.
Every numbered part comes from another study and shows a few of its results, in no order. Values joined by “and” are separate records of one study, mostly repeats; a detail may differ.
Chain of UniProt P42336 (whole entry, unmodified, looked up): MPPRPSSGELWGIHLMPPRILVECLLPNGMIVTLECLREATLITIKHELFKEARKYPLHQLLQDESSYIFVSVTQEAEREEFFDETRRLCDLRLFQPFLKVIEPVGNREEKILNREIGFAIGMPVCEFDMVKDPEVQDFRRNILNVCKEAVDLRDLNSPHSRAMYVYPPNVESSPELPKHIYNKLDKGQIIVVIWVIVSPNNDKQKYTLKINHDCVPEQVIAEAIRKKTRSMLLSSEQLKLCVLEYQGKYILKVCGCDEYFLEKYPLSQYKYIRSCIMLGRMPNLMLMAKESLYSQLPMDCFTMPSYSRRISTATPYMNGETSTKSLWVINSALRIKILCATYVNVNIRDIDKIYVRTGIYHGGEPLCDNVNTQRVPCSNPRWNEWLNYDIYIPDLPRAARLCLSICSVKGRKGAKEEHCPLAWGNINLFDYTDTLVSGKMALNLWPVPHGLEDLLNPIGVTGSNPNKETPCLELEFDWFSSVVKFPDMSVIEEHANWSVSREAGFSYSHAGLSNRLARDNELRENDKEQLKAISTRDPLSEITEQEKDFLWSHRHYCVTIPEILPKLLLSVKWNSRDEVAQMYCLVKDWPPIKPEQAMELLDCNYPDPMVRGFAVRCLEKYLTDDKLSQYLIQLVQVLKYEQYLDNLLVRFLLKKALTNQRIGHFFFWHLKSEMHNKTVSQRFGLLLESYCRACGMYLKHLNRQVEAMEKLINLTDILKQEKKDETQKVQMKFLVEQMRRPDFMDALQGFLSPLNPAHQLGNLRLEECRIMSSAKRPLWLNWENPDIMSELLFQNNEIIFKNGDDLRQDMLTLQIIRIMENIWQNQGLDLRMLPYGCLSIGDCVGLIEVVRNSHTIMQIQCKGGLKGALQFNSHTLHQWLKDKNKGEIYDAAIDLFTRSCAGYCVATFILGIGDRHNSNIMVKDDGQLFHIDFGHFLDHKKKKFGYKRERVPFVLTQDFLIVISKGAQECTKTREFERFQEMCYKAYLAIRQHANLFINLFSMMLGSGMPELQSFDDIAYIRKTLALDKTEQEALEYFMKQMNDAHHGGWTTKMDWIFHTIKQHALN
Chain of UniProt P29597 (whole entry, looked up): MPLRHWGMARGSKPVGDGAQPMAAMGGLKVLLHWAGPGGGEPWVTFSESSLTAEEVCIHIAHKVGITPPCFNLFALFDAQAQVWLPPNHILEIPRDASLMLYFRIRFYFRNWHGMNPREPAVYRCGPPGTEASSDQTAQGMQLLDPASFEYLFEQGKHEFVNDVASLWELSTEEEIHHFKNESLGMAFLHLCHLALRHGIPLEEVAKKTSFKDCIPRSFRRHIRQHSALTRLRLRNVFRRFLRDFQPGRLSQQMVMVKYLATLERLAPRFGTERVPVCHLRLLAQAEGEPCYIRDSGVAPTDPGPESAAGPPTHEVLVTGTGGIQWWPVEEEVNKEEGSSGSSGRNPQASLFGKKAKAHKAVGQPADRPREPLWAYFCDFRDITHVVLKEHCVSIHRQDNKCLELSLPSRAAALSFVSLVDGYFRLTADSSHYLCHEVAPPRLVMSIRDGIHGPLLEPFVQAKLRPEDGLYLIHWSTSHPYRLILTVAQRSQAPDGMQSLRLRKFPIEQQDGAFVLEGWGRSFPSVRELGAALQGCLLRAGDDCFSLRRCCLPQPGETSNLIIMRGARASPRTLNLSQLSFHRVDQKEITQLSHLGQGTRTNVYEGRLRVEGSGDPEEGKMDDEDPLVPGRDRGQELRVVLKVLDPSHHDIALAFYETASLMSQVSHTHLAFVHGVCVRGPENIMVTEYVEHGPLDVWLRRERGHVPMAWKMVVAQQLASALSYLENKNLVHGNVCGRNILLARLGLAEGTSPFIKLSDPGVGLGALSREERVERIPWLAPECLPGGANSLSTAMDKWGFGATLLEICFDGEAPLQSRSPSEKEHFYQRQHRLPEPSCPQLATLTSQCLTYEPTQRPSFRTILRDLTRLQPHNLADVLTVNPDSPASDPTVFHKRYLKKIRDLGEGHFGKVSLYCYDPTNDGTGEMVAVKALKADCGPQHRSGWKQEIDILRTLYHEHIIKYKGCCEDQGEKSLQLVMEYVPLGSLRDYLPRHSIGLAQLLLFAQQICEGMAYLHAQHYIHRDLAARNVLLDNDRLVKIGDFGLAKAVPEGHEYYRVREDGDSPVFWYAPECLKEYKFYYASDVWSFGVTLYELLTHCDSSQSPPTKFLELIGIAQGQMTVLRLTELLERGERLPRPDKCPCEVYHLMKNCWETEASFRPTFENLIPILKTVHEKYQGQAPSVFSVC
Chain of UniProt O43283 (whole entry, looked up): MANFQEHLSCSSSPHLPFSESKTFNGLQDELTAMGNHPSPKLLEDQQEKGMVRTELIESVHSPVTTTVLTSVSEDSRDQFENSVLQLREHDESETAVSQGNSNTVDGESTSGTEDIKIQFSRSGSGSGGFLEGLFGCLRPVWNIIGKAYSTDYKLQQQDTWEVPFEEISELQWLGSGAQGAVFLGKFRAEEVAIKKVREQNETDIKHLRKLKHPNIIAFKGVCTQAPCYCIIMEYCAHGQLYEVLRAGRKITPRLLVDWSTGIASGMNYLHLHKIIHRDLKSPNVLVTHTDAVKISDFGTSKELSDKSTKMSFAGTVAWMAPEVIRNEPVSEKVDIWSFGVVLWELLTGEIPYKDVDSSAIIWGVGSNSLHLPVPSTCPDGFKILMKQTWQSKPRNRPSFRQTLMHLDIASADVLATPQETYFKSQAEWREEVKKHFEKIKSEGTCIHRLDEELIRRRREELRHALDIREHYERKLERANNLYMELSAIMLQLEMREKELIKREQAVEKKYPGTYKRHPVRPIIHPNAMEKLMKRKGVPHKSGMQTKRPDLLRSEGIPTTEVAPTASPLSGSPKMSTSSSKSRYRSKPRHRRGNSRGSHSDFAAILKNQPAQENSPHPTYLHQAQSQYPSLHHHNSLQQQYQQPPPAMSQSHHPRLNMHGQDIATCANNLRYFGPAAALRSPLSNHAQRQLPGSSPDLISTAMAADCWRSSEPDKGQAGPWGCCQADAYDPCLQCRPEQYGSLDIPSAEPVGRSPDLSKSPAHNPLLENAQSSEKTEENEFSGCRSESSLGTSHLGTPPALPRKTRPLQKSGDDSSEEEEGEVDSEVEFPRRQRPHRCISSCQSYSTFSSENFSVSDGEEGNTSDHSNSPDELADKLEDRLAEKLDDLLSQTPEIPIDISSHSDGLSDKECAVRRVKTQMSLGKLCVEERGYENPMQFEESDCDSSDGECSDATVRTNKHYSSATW
Chain of UniProt O95747 (whole entry, looked up): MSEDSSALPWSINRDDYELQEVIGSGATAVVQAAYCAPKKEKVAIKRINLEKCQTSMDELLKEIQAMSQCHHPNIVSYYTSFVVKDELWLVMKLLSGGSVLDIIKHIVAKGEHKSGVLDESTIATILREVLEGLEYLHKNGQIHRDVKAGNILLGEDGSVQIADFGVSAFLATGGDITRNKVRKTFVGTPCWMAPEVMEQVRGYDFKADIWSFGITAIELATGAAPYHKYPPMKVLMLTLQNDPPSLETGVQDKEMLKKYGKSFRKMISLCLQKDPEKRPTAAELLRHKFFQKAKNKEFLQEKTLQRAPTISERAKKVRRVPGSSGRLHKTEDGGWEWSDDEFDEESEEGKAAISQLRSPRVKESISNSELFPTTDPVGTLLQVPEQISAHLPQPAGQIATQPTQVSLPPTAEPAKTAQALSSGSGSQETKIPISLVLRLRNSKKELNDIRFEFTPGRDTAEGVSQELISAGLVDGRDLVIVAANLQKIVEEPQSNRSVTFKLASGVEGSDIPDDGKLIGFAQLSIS
Chain of UniProt Q9HBY8 (whole entry, looked up): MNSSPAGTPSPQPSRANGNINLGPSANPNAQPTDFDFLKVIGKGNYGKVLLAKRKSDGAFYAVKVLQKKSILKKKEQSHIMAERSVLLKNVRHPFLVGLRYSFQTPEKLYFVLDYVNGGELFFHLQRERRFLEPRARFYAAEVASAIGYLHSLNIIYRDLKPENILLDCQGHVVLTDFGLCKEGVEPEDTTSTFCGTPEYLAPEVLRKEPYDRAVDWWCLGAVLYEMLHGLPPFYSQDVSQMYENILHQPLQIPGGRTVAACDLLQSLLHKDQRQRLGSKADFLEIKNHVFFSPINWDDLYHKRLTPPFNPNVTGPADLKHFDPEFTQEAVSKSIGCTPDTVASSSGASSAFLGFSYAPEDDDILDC

Sample 1
SMILES: Cn1nc(C(=O)NCc2ccc(C(=O)O)cc2)cc1-c1ccc2[nH]ccc2c1
Tested at: 0.1 µM
target	effect on	technique	remaining binding [%]
Atypical kinase COQ8B, mitochondrial (COQ8B, Homo sapiens, UniProt Q96D53)	cell-free assay	competition with immobilised ligand	100
Tyrosine-protein kinase Yes (YES1, Homo sapiens, UniProt P07947)	cell-free assay	competition with immobilised ligand	84
Dual specificity mitogen-activated protein kinase kinase 2 (MAP2K2, Homo sapiens, UniProt P36507)	cell-free assay	competition with immobilised ligand	85
Phosphatidylinositol 4-phosphate 3-kinase C2 domain-containing subunit beta (PIK3C2B, Homo sapiens, UniProt O00750)	cell-free assay	competition with immobilised ligand	78
Tyrosine-protein kinase Lyn (LYN, Homo sapiens, UniProt P07948)	cell-free assay	competition with immobilised ligand	100
Serine/threonine-protein kinase WNK1 (WNK1, Homo sapiens, UniProt Q9H4A3)	cell-free assay	competition with immobilised ligand	100
Phosphatidylinositol 4,5-bisphosphate 3-kinase catalytic subunit alpha isoform (PIK3CA, Homo sapiens, UniProt P42336)	cell-free assay	competition with immobilised ligand	41
Receptor-type tyrosine-protein kinase FLT3 (FLT3, Homo sapiens, UniProt P36888, D835Y)	cell-free assay	competition with immobilised ligand	81
Mitogen-activated protein kinase kinase kinase 13 (MAP3K13, Homo sapiens, UniProt O43283)	cell-free assay	competition with immobilised ligand	78
Leukocyte tyrosine kinase receptor (LTK, Homo sapiens, UniProt P29376)	cell-free assay	competition with immobilised ligand	81
SNF-related serine/threonine-protein kinase (SNRK, Homo sapiens, UniProt Q9NRH2)	cell-free assay	competition with immobilised ligand	92
Serine/threonine-protein kinase MRCK gamma (CDC42BPG, Homo sapiens, UniProt Q6DT37)		competition binding	100
Cyclin-dependent kinase 19 (CDK19, Homo sapiens, UniProt Q9BWU1)		competition binding	100
Protein-tyrosine kinase 2-beta (PTK2B, Homo sapiens, UniProt Q14289)	cell-free assay	competition with immobilised ligand	96
Serine/threonine-protein kinase 36 (STK36, Homo sapiens, UniProt Q9NRP7)	cell-free assay	competition with immobilised ligand	93
NUAK family SNF1-like kinase 1 (NUAK1, Homo sapiens, UniProt O60285)	cell-free assay	competition with immobilised ligand	70
Non-receptor tyrosine-protein kinase TYK2, JH1 (TYK2, Homo sapiens, UniProt P29597)	cell-free assay	competition with immobilised ligand	82
Megakaryocyte-associated tyrosine-protein kinase (MATK, Homo sapiens, UniProt P42679)	cell-free assay	competition with immobilised ligand	86

Sample 2
Target: Eukaryotic initiation factor 4A-III (Homo sapiens, UniProt P38919)
Chain of UniProt P38919 (whole entry, looked up): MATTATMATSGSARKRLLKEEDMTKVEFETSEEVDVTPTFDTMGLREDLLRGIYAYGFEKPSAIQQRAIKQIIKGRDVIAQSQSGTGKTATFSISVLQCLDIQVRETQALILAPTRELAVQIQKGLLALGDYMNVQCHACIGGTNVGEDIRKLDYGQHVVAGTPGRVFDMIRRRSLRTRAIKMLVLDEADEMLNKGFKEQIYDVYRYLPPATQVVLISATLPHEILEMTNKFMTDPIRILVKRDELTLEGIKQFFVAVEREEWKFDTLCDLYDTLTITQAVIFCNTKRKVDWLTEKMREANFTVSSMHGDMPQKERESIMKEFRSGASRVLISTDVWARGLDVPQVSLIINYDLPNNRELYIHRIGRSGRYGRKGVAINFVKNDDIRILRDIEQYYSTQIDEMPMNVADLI
Effect on: RNA clamping
Technique: fluorescence polarization
Tested at: concentration not given
Together with: FAM-labelled poly r(AG)8 RNA
SMILES	fluorescence polarization change
COC(=O)[C@H]1C(=O)[C@@]2(NC34C[C@H]5C[C@@H](C3)C[C@@H](C4)C5)c3c(OC)cc(OC)cc3O[C@@]2(c2ccc(OC)cc2)[C@@H]1c1ccccc1	-0.9 mP
COC(=O)[C@H]1[C@@H](O)[C@@]2(O)c3c(OC)cccc3N(C)[C@@]2(c2ccc(Br)cc2)[C@@H]1c1ccccc1	-4.7 mP
COC(=O)[C@@H]1[C@@H](c2ccccc2)[C@]2(c3ccc(OC)cc3)Oc3cc(OC)cc(OC)c3[C@@]23OC(c2cccc(OC)c2)=N[C@@]13O	0.4 mP
COc1ccc([C@@]23Oc4cc(OC)cc(OC)c4[C@]2(NCc2ccccc2)C(=O)C[C@H]3c2ccccc2)cc1	9.6 mP
C#CCNC(=O)/C=C/Cn1c(-c2ccccc2)nc2c(c1=O)[C@@H](c1ccccc1)[C@]1(c3ccc(OC)cc3)Oc3cc(OC)cc(OC)c3[C@]21O	4.6 mP
COc1cc(OC)c2c(c1)O[C@@]1(c3ccc(Br)cc3)[C@H](c3ccccc3)C3=C(O[C@@H]4CCCN4C3=O)[C@@]21O	51.6 mP
COC(=O)[C@@H]1[C@@H](c2ccccc2)[C@]2(c3ccc(OC)cc3)Oc3cc(OC)cc(OC)c3[C@@]23NC(C(F)(F)F)=N[C@@]13O	11.2 mP
COC(=O)[C@@H]1[C@@H](c2ccccc2)[C@]2(c3ccc(OC)cc3)Oc3cc(OC)cc(OC)c3[C@@]23NC(Cc2ccccc2)=N[C@@]13O	23.4 mP and 13.6 mP
COc1cc(O)cc2c1[C@]1(O)[C@H](O)[C@H](C(=O)N(C)OC)[C@@H](c3ccccc3)[C@]1(c1ccc(Br)cc1)O2	51.1 mP and 28 mP
C=CCN[C@@]12C(=O)[C@H](C(=O)OC)[C@@H](c3ccccc3)[C@]1(c1ccc(OC)cc1)Oc1cc(OC)cc(OC)c12	-0.4 mP
COc1ccc([C@@]23Oc4cc(OC)cc(OC)c4[C@]2(O)c2nc(-c4ccccc4)nc(OC)c2[C@H]3c2ccccc2)cc1	4.8 mP
COCCN[C@@]12C(=O)[C@H](C(=O)N(C)C)[C@@H](c3ccccc3)[C@]1(c1ccc(OC)cc1)Oc1cc(OC)cc(OC)c12	1.9 mP
COc1ccc([C@@]23Oc4cc(OS(=O)(=O)c5ccc(C)cc5)cc(OC)c4[C@]2(O)c2nc(-c4ccccc4)n(Cc4ccccc4)c(=O)c2[C@H]3c2ccccc2)cc1	0.8 mP
COc1ccc([C@]23Oc4cc(OC)cc(OC)c4[C@](O)([C@H]2O)[C@@H](C(=O)N(C)OC)[C@@H]3c2ccccc2)cc1	-1.3 mP
COC(=O)[C@H]1C(=O)[C@@]2(NC(C)C)c3c(OC)cc(OC)cc3O[C@@]2(c2ccc(OC)cc2)[C@@H]1c1ccccc1	-0.2 mP
O[C@@H]1C2(O)c3ccccc3O[C@]1(c1ccccc1)[C@@H](/C=C/c1ccccc1)[C@@H]2c1ccccc1	8.2 mP
C#CCOc1cc(OC)c2c(c1)O[C@@]1(c3ccc(OC)cc3)[C@H](c3ccccc3)c3c(nc4n(c3=O)CCC4)[C@@]21O	10.5 mP
COc1ccc([C@@]23Oc4cc(OC)cc(OC)c4[C@]2(O)[C@H](O)[C@H](C(=O)c2cc(C)c(C)o2)[C@H]3c2ccccc2)cc1	11.5 mP
COc1ccc([C@@]23Oc4cc(OC)cc(OC)c4[C@]2(O)C2=C(C(=O)N4CCC[C@H]4O2)[C@H]3c2ccccc2)cc1	18.5 mP
COCCN[C@@]12/C(=N/O)C[C@@H](c3ccccc3)[C@]1(c1ccc(OC)cc1)Oc1cc(OC)cc(OC)c12	4.6 mP

Sample 3
Target: Mitogen-activated protein kinase 8 (MAPK8, Homo sapiens, UniProt P45983)
Chain of UniProt P45983 (whole entry, looked up): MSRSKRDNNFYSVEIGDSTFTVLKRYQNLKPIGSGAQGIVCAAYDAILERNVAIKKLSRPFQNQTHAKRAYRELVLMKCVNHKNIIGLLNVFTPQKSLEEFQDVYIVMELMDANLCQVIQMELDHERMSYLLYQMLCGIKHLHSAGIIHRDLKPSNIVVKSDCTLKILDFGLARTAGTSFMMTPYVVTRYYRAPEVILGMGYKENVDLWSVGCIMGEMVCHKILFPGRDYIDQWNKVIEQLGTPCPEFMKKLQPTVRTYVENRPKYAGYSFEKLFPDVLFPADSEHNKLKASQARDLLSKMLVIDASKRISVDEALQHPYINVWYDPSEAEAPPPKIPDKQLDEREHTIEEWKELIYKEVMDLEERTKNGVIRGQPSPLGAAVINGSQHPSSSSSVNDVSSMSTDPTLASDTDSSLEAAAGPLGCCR
Effect on: enzyme activity
Mode: inhibitor
Tested at: 0.5 µM
Relative to: control
Compound	remaining activity [%]
COc1ccc(-c2cnc3c(-c4ccsc4)cnn3c2)cc1	100
Nc1[nH]nc2nnc(-c3c(-c4ccccc4)nn4ccccc34)cc12	98
O=C1NC(=O)/C(=C/c2ccc3nccnc3c2)S1	91.5
COc1cc2ncc(-c3ccccc3)nc2cc1OC	102
Cc1nc(Nc2ncc(C(=O)Nc3c(C)cccc3Cl)s2)cc(N2CCN(CCO)CC2)n1	106
CS(=O)(=O)CCNCc1ccc(-c2ccc3ncnc(Nc4ccc(OCc5cccc(F)c5)c(Cl)c4)c3c2)o1	91.9
CCN1/C(=C/C(C)=O)Sc2ccc(OC)cc21	102
CC(=O)O/N=C1/C(c2c(O)[nH]c3cc(Br)ccc23)=Nc2ccccc21	88.9
Cn1cnc2cc3c(Nc4cccc(Br)c4)ncnc3cc21	96.9
O=c1cc(N2CCOCC2)oc2c1ccc1ccccc12	97.2
CCC(=O)Nc1ccc2ncnc(Nc3cccc(Br)c3)c2c1	73.7
CC(C)c1nn(-c2c(Cl)cccc2Cl)c2nc(Cc3ccc(OCCO)cc3)[nH]c(=O)c12	95.4
O=C(Nc1ccc(Cl)cc1)c1ccccc1NCc1ccncc1	109
Cc1ccc(NC(=O)c2ccc(CN3CCN(C)CC3)cc2)cc1Nc1nccc(-c2cccnc2)n1	93.9
COc1cc2ncnc(N3CCN(C(=O)Nc4ccc(Oc5ccccc5)cc4)CC3)c2cc1OC	90.5
COc1cc2ncnc(Nc3ccc(OCc4ccccc4)cc3)c2cc1OC	102
CCOc1cc2ncnc(Nc3cccc(Br)c3)c2cc1OCC	90.7
CC(C)[C@H](CO)Nc1nc(Nc2cccc(Cl)c2)c2ncn(C(C)C)c2n1	99
COc1ccc(Cl)cc1NC(=O)Nc1cc(C)nc2ccccc12	104
CN(C)CCCn1cc(C2=C(c3c[nH]c4ccccc34)C(=O)NC2=O)c2ccccc21	90.2
C[S+]([O-])c1ccc(-c2nc(-c3ccncc3)c(-c3ccc(F)cc3)[nH]2)cc1 (stereo not shown)	96.1
Cn1cc(/C=C2\C(=O)Nc3ccc(S(N)(=O)=O)cc32)c2ccccc21	108

Sample 4
SMILES: Cc1ccc(NC(=O)c2ccnc(C(F)(F)F)c2)cc1-c1cc(OCCO)nc(N2CCOCC2)c1
Tested at: 1 µM
target	technique	measured	notes	relative to	remaining binding
Myosin light chain kinase family member 4 (MYLK4, Homo sapiens, UniProt Q86YV6)	competitive binding panel			vehicle	96%
Mitogen-activated protein kinase kinase kinase kinase 3 (MAP4K3, Homo sapiens, UniProt Q8IVH8)	competitive binding panel			vehicle	100%
Calcium/calmodulin-dependent protein kinase type II subunit gamma (CAMK2G, Homo sapiens, UniProt Q13555)	competitive binding panel			vehicle	99%
Serine/threonine-protein kinase Sgk2 (SGK2, Homo sapiens, UniProt Q9HBY8)	competitive binding panel			vehicle	93%
Phosphatidylinositol 4,5-bisphosphate 3-kinase catalytic subunit alpha isoform (PIK3CA, Homo sapiens, UniProt P42336, E545K)	competitive binding panel			vehicle	73%
Serine/threonine-protein kinase VRK2 (VRK2, Homo sapiens, UniProt Q86Y07)	competitive binding panel			vehicle	100%
STE20-like serine/threonine-protein kinase (SLK, Homo sapiens, UniProt Q9H2G2)	competitive binding panel			vehicle	92%
Serine/threonine-protein kinase B-raf (BRAF, Homo sapiens, UniProt P15056)	competitive binding panel			vehicle	0.4%
Serine/threonine-protein kinase TAO2 (TAOK2, Homo sapiens, UniProt Q9UL54)	competitive binding panel			vehicle	80%
Phosphatidylinositol 4,5-bisphosphate 3-kinase catalytic subunit beta isoform (PIK3CB, Homo sapiens, UniProt P42338)	competitive binding panel			vehicle	100%
TRAF2 and NCK-interacting protein kinase (TNIK, Homo sapiens, UniProt Q9UKE5)	competitive binding panel			vehicle	100%
Casein kinase I isoform gamma-1 (CSNK1G1, Homo sapiens, UniProt Q9HCP0)	competitive binding panel			vehicle	91%
cGMP-dependent protein kinase 2 (PRKG2, Homo sapiens, UniProt Q13237)	competitive binding panel			vehicle	86%
Fibroblast growth factor receptor 3 (FGFR3, Homo sapiens, UniProt P22607, G697C)	competitive binding panel			vehicle	72%
Proto-oncogene tyrosine-protein kinase Src (SRC, Homo sapiens, UniProt P12931)	competitive binding panel			vehicle	100%
SRSF protein kinase 3 (SRPK3, Homo sapiens, UniProt Q9UPE1)	competitive binding panel			vehicle	93%
Ephrin type-B receptor 2 (EPHB2, Homo sapiens, UniProt P29323)	competitive binding panel			vehicle	85%
Serine/threonine-protein kinase OSR1 (OXSR1, Homo sapiens, UniProt O95747)	competitive binding panel	OSR1		vehicle	89%
Myosin light chain kinase (MYLK3, Homo sapiens, UniProt Q32MK0)	competitive binding		MLCK		100%

Excerpt of the above (sample 1):
target	effect on	technique	remaining binding [%]
NUAK family SNF1-like kinase 1 (NUAK1, Homo sapiens, UniProt O60285)	cell-free assay	competition with immobilised ligand	70
Phosphatidylinositol 4,5-bisphosphate 3-kinase catalytic subunit alpha isoform (PIK3CA, Homo sapiens, UniProt P42336)	cell-free assay	competition with immobilised ligand	41
Megakaryocyte-associated tyrosine-protein kinase (MATK, Homo sapiens, UniProt P42679)	cell-free assay	competition with immobilised ligand	86
Atypical kinase COQ8B, mitochondrial (COQ8B, Homo sapiens, UniProt Q96D53)	cell-free assay	competition with immobilised ligand	100
Dual specificity mitogen-activated protein kinase kinase 2 (MAP2K2, Homo sapiens, UniProt P36507)	cell-free assay	competition with immobilised ligand	85
Phosphatidylinositol 4-phosphate 3-kinase C2 domain-containing subunit beta (PIK3C2B, Homo sapiens, UniProt O00750)	cell-free assay	competition with immobilised ligand	78
